Results pooled from the literature.
Every numbered part comes from another study and shows a few of its results, in no order. Changes are numbered by the printed parent chain.

Sample 1 — technique: protein binding microarray; form: double-stranded DNA, one strand shown; sample: in vitro; concentration: not given; relative to: not given; direction: higher = stronger binding; measurement: E-score
Target: Histone acetyltransferase KAT6A, winged helix 1, GST fusion (KAT6A, Homo sapiens, UniProt Q92794, residues 1-85)
Notes: 8-mer, flanks averaged, mean of 2 arrays, mostly near background
Construct (chain): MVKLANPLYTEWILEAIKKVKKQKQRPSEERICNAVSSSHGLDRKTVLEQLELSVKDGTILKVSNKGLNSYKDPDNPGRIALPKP
CATCCATG: -0.107
GAGTCAAA: -0.149
GGGCGCCC: 0.349
TAGGACGA: -0.126
GGGTTATA: 0.0436
ACCCTCCG: 0.0962
AGTTAATC: -0.149
ACATAGGG: -0.0383
ATTTTGCG: -0.0344
ACTGGCAT: -0.155
GGAGGGAA: -0.0152
CATTGTGG: -0.193
CCTAGCTC: -0.103
GATGGGCC: -0.0231
AACGAAGG: -0.167
AACCTTGA: -0.175
CACTCGTA: -0.0149
AGGATTAA: 0.00411
CGGAGGAG: 0.0836
CCCCTTAA: -0.239
CTGGCCAG: -0.245
AGCCGCAG: 0.255
GAGAAGCA: -0.185
CAGAAGAG: -0.249
AACTCGCA: -0.258

Sample 2 — technique: RNA Bind-n-Seq; form: RNA; sample: in vitro; concentration: not given; relative to: input RNA pool; direction: higher = stronger binding; measurement: bound/input enrichment
Target: RING finger protein unkempt homolog, zinc fingers 1-6, GST-SBP tag (UNK, Homo sapiens, UniProt Q9C0B0, residues 30-357)
Chain of UniProt Q9C0B0 (30-357, looked up): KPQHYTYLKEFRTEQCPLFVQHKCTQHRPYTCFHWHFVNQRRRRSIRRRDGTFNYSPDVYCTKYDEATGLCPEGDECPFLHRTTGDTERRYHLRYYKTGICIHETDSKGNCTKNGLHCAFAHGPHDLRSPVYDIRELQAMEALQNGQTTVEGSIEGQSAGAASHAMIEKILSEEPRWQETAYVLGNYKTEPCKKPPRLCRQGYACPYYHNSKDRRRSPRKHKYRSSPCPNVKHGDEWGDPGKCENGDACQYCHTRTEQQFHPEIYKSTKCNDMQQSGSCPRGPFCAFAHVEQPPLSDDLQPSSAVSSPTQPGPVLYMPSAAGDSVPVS
Notes: RNA with constant flanks, human-mouse chimeric sites, ends assumed
Constant ends, left off below: GGGAGUUCUACAGUCCGACGAUC … CAACAGAGGAUUGAGCAUCA
UACUCAACUUUCUUGCCACAUUUUGAAUUCCAAGACAUUAUUCCUCCAGAUGACUUCCUAACGAGUGAUGAAGAGCAAGAUUUGGUUUUAUUUGGAAGUUUGAGAGGACAAGUUGUUGGA: 0.189 ratio
ACCAUUUUCGCGGUUCAGGCUUUGUGUGUAGUUCACUUACGGUAUUAAAUUAUUAUUGCCCUUAGUUUAUAAUAAGGAUUACAAUUGUUAAAGAGGUUACUGAAUGUUACUCUGAAACUU: 1.37 ratio
UAAGUCCUGUGCCAGCACUUCGCUCAUAAAGUUUUAAAUUCUGGACCAAUAGUGUUUGUUUCCUGAUUAUUGUAUCCAAUACUUUGCGUACUAUGUGACUCACUCUUCUGGAUAAAUAAA: 1.88 ratio
CUCAUGGCUGCAGAAACAGGAAGUGGCAAAACUGGUGCAUUUAGUAUUCCCGUUAUCCAGAUAGUGUAUGAAACUCUGAAAGACCAACAGGAAGGCAAGAAAGGGAAAACAACUAUUAAA: 0.731 ratio
CUGUGUGUGCUGAAUAAAUGGCUUGUAAAGAAGUUUUCCAAGUUGUAACCCAUGUACGUUAUUAUAGUUGCUGCAAAAUGUUCUUCCUGAUAUUGAUUUUAUUUGUUAACUGAAGGUCUC: 0.647 ratio
GGUGGGGUGGUCAUUGCCGUUUGAGCUCUGCUGAUUCAUGAGUCGCCUUCAAAACUCUCGUGUAGGGUUGACAAUGUGGGGGGGUGGGAAAUCUAGCUUAUUCUUUUAUUUUCAAGUCCA: 10.9 ratio
AUCCCAAUUAUGGACACCGGUGAAAACCCAGAGGUUCCCUUCCCCCGGGACAUGAUUGACUUAGAGGCCAAUUUCGAGAAGAUUGAAAAUGAACUGAAGGAAAUCAACACAAACCAGGAA: 0.212 ratio
UUUGUAACUUAUCUGUAAGGUUCCCCCCCCCUACUGUCAAAAAAUAUGCAUGUAUAGUAAUUAGGACUUCAUUCCUCCAUGUUUUCUUCCCUUAUCUUACUGUCAUUGUCCUUAAACCUU: 2.11 ratio
CUGGCCUGGCCCUCCCCAGGGGCCUCCUUCUCUGCAUUCACUGCUUCUGCAUCAGAUAUUUUUAGCUGCAACUCCCUACUGGGUGGGGCACCCAUUUCAGGCAGAAGGUUUUGGUACCCU: 0.321 ratio
AGAUUCCCCCUCCUGAGACCUCCUCCGAAGUUGGAGUCUCUUACAGAUGGUUCAUCUCCUGUUAGUAUUUUAGUUUGGACCACCCAGCCUUGGACAAUUCCCGCCAACCAGGCAAUUUGC: 9.8 ratio
CUGUGACUGAUGGCAGCUACCUGAGUGGCAGCUGAAGUUGACUCCCUCUCCUUGCCUGAACCCCCCCCCACUGCCCCCCCAUCCCCCAGUGUCGGCUAUUCUCUGGUCUCUGCACGGUUC: 1.32 ratio

Sample 3 — technique: universal PBM; form: double-stranded DNA, one strand shown; sample: in vitro; concentration: not given; direction: higher = stronger binding; measurement: E-score
Target: Sal-like protein 4, full length isoform B (SALL4, Homo sapiens, UniProt Q9UJQ4-2, residues 1-616)
Notes: 8-mer, flanks averaged, mean of replicates
CACCTCCC: -0.197
CCACAGTA: 0.0525
AAAGTATG: 0.22
ACATGAGT: 0.106
AGCAAGGA: -0.0857
CGGCTCTC: -0.241
ATAGAATC: 0.217
CTCATTAA: 0.188
AATCCATC: 0.107
CGATTAAG: 0.0487
CCTGGATC: -0.227
AGACGATC: -0.265
CAGGCGCA: -0.246
ACAAACGG: -0.02
AAATCGAT: 0.0824
GGGTTTTA: -0.00559
ACCTGAAA: 0.0463
TCCAAGGA: -0.0249
AGCATTGA: 0.0248
AGTGTGGG: -0.0276
AGCAGGGC: -0.294

Sample 4 — target: CCNA1, cyclin fold, Cln2 fusion (human); technique: yeast growth competition, sequencing; sample: yeast; notes: weak parent motif; relative to: not given; direction: higher = stronger binding; measurement: normalised enrichment score
Starting sequence: PKN2 docking peptide (human); VSAVRKLDFSDTM
F9R: 0.171
F9E: 0.16
D11W: -0.256
S2Y: 0.69
K6W: 0.284
L7G: -0.17
K6I: 0.218
F9I: 0.329
T12R: 0.977
F9W: 0.577
L7F: -0.0286
V4K: 1.46
V4N: 0.681
T12E: 0.929
D11K: 1.02
A3P: -0.458
F9P: 0.262
S10G: 0.94
D8C: 0.269
S2I: 0.734
S10T: 0.97
S2W: 0.731
S10L: 0.456
V4I: 0.724
S2P: 0.493

Sample 5 — technique: RNA Bind-n-Seq; form: RNA; sample: in vitro; concentration: 365 nM; relative to: no-protein control; direction: higher = stronger binding; measurement: RBNS enrichment (R)
Target: RNA binding protein fox-1 homolog 2, RRM domain, GST-SBP tag (RBFOX2, Homo sapiens, UniProt O43251-10, residues 100-194)
Notes: natural RNA segment, single round, ends assumed
Constant ends, left off below: GGGAGUUCUACAGUCCGACGAUC … UGGAAUUCUCGGGUGCCAA
Construct (chain): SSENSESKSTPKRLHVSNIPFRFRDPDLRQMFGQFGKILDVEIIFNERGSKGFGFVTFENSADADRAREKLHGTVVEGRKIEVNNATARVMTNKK
UUUUGAGGGGGAAGGUGGCGGGGUGGGAACCGUGUCAUUCCAGAGUGGAUCUGCGGUGAAGCCAAGCCGCAAGGUUACAAGGCAUCCUCACCAGGGGCCCCGCCUGCUGC: 0.659
UGCGCUGUCCCGGCCGCAAGAGCGGGGCCGCCCCGCCGAGGUUUGUAGCAGCCGGGAUGUGACCCUCCAGGGUUUGGGUCGCUUUGCGUUUGUCGAAGCCUCCUCUGAAU: 3.17
UCUCAGGCCUCGGAAGGAAGAUCGGUGGCUGCGAGCUGAACUAAGGAGUAGGGCCUGUGGCUCAGCGCUAGGCCACGCACGCAGCAUCCCAGGCAUGUGGUGAGAAACUG: 1.28
GGUGCCUGCCACCAUGGUGGGAUCCAGUAUGUUUUAUAAAUCUGAAUGAGUAAAUGGCUCACCAAUUUAUGCAUAGCCCUGCACAUGAGCAGAAUGUGACACUCAAAGCA: 2.75
ACUUAAGGGACCACCUUGGGAAGCUUCUGUAGCUUCAGCCAGGCAAGAAAGCUUCUUCCAACUUCUGUUUCUGGUGGGAGCGGGGGGACUCCCACUUUUUACAAUGUCUA: 0.672
UAAAUGAUGACUACUGUUUGGGGUUUUGAGACCCCGCUGUGUAAAUGUGUGUCUUUCACAGGAGUGACUGCUGCGUGUAAGAGAGCUGUCAAUCAAACUUAUGGUCAUUU: 3.34
CCUCGCCUCUGUUUGUCUGGCUCUAGAUACCUAAUUCUCAAUCUUCCUCCGCUCACCCCAUUGCUUGUUAUCACUGGGGAUGCCUGGACUUGGUCAAGUGAGCAACUGAU: 3.26
AUAUAGGAAUAUUAUUUUCCAUAUGAUCUGUUGUAUGGUGUAUAUGCUAUGUGUUCAUUUCGUGUGCAAGUUCAGAGUGUAAUAGAUUUACCCAGAGAAGGUGUUUCUAU: 0.652
CCGUCUCUGUCCAUGCACCUCGAUUCACGGCGAGACAUUUAGCCACCACUCUCUGCGUAUUGAUGGCAUGAUACGGUAUUGUCCUCGUAUAGAGUUAACAACUUACGAUA: 0.471
UGUACAGGAAUGUGAAGGGAGGCCUCUGAGCAGUCCAGGGUGUGCUUGACAAAGUCCCAAGUGCUCAGGACUUUUAGCCCUGUCUACUUUGGCUUGGUUUGGAUGAUUCU: 0.722
GUGCUAAUAUUAGCUGCAUUUCCUGCAGGGCAGGGAUGCGACCUUGCACAUGCUAGGCAAGCUCUCUACCCUGAGCUACGUACAUCCUAGCCCUUAGAACUACCACCCUG: 0.339
UACCAUGUAAUGUAACAUCAAUUAAGAGAAUAUCUGUAGUUACCAUAUUUAAGAUUUGAGAUACCAAAAGAAUGUCCCUCAAGGGACAUUGCCAUUUAUUCUAGAAUUAA: 0.433

Other studies, line by line
PhoQ, residues 284 288 289 292 302 303 SLANIV
fold induction (PhoP, residues 12 14 15 18 19 TQAIL (Escherichia coli, UniProt P23836); Sort-seq, measured: YFP reporter; E. coli; PhoQ-PhoP variant library, together with: 10 µM Mg2+; relative to: high Mg2+ state, higher = stronger signaling): 22.8

Some of these lines once more (sample 2):
ACCAUUUUCGCGGUUCAGGCUUUGUGUGUAGUUCACUUACGGUAUUAAAUUAUUAUUGCCCUUAGUUUAUAAUAAGGAUUACAAUUGUUAAAGAGGUUACUGAAUGUUACUCUGAAACUU: 1.37 ratio
UAAGUCCUGUGCCAGCACUUCGCUCAUAAAGUUUUAAAUUCUGGACCAAUAGUGUUUGUUUCCUGAUUAUUGUAUCCAAUACUUUGCGUACUAUGUGACUCACUCUUCUGGAUAAAUAAA: 1.88 ratio
CUCAUGGCUGCAGAAACAGGAAGUGGCAAAACUGGUGCAUUUAGUAUUCCCGUUAUCCAGAUAGUGUAUGAAACUCUGAAAGACCAACAGGAAGGCAAGAAAGGGAAAACAACUAUUAAA: 0.731 ratio
CUGUGUGUGCUGAAUAAAUGGCUUGUAAAGAAGUUUUCCAAGUUGUAACCCAUGUACGUUAUUAUAGUUGCUGCAAAAUGUUCUUCCUGAUAUUGAUUUUAUUUGUUAACUGAAGGUCUC: 0.647 ratio
GGUGGGGUGGUCAUUGCCGUUUGAGCUCUGCUGAUUCAUGAGUCGCCUUCAAAACUCUCGUGUAGGGUUGACAAUGUGGGGGGGUGGGAAAUCUAGCUUAUUCUUUUAUUUUCAAGUCCA: 10.9 ratio
AUCCCAAUUAUGGACACCGGUGAAAACCCAGAGGUUCCCUUCCCCCGGGACAUGAUUGACUUAGAGGCCAAUUUCGAGAAGAUUGAAAAUGAACUGAAGGAAAUCAACACAAACCAGGAA: 0.212 ratio
UUUGUAACUUAUCUGUAAGGUUCCCCCCCCCUACUGUCAAAAAAUAUGCAUGUAUAGUAAUUAGGACUUCAUUCCUCCAUGUUUUCUUCCCUUAUCUUACUGUCAUUGUCCUUAAACCUU: 2.11 ratio
CUGGCCUGGCCCUCCCCAGGGGCCUCCUUCUCUGCAUUCACUGCUUCUGCAUCAGAUAUUUUUAGCUGCAACUCCCUACUGGGUGGGGCACCCAUUUCAGGCAGAAGGUUUUGGUACCCU: 0.321 ratio
